Experimental data from different studies.
Parts stem from different laboratories: compare values within a part only. Substitutions count along the parent as printed.
Chain of UniProt P42336 (whole entry, unmodified, looked up): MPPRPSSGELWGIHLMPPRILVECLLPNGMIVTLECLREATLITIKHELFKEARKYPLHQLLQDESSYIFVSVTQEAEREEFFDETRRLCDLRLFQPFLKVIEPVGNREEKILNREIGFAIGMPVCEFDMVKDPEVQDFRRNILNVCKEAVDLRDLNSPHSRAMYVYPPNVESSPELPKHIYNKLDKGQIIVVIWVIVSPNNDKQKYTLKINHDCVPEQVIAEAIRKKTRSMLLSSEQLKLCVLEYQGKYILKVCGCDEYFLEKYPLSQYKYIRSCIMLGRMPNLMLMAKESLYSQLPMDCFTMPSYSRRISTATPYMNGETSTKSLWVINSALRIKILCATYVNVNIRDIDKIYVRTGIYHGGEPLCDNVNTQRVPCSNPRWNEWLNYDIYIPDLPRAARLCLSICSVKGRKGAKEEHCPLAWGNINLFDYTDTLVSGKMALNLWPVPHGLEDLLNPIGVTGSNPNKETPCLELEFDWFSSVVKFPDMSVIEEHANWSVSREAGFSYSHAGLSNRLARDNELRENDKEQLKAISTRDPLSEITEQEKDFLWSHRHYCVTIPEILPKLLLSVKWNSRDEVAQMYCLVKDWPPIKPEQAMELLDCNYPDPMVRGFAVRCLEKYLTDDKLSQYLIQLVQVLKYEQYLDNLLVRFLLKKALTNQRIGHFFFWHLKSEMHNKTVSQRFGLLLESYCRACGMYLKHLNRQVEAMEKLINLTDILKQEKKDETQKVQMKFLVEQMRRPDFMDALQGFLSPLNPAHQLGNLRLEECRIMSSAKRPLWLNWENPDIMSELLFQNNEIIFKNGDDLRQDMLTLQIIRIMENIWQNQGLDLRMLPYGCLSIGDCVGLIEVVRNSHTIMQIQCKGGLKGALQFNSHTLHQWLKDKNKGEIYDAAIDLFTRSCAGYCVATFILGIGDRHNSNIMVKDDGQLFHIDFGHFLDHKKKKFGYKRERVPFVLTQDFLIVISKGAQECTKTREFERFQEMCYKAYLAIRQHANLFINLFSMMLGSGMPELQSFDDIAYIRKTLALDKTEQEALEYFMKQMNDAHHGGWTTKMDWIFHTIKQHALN
Chain of UniProt P53355 (whole entry, looked up): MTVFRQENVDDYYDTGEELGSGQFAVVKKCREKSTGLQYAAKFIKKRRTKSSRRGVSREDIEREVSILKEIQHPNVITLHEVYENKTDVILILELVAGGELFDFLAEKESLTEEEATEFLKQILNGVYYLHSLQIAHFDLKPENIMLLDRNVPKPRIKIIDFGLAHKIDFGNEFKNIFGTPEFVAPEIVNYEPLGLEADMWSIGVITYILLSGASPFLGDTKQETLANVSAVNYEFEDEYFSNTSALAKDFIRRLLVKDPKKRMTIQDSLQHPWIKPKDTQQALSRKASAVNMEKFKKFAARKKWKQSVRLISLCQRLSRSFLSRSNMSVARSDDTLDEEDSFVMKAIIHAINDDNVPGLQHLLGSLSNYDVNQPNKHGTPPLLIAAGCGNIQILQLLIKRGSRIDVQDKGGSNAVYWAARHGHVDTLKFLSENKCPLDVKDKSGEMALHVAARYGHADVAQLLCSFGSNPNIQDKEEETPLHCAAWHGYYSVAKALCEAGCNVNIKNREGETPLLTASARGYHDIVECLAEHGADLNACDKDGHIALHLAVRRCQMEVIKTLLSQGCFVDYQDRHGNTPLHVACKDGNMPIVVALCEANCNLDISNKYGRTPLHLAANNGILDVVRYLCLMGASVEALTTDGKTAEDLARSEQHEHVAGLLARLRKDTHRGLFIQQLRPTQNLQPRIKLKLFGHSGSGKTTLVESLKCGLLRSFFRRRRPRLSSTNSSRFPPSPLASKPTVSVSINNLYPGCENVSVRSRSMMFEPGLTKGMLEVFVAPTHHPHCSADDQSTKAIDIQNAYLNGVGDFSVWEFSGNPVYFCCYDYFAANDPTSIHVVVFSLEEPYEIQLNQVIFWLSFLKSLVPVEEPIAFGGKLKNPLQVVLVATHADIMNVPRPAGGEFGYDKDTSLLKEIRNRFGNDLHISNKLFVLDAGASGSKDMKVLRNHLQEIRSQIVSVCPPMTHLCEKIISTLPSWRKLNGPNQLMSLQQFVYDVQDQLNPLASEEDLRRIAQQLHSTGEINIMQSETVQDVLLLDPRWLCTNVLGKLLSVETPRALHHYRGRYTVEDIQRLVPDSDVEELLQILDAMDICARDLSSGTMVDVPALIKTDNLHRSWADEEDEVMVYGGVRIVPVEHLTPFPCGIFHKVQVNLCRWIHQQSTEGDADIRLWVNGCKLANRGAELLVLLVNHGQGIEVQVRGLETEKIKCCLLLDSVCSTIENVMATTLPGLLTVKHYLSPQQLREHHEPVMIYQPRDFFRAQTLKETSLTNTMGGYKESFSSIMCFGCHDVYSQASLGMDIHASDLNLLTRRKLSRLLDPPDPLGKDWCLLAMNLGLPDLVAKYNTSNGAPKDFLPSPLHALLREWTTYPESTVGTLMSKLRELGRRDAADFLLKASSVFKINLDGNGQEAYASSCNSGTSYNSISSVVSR
Chain of UniProt Q8IY84 (whole entry, looked up): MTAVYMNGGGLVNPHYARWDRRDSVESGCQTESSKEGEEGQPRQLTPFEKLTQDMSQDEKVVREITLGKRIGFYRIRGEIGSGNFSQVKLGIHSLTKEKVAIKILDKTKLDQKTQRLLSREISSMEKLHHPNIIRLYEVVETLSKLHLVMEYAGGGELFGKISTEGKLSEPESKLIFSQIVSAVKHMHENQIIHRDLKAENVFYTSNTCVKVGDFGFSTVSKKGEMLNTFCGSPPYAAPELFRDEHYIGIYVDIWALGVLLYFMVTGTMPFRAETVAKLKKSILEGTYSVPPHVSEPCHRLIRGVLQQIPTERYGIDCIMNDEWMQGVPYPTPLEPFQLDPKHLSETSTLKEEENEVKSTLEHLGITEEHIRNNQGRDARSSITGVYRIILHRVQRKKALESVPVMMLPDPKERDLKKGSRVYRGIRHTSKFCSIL
Chain of UniProt P07333 (whole entry, looked up): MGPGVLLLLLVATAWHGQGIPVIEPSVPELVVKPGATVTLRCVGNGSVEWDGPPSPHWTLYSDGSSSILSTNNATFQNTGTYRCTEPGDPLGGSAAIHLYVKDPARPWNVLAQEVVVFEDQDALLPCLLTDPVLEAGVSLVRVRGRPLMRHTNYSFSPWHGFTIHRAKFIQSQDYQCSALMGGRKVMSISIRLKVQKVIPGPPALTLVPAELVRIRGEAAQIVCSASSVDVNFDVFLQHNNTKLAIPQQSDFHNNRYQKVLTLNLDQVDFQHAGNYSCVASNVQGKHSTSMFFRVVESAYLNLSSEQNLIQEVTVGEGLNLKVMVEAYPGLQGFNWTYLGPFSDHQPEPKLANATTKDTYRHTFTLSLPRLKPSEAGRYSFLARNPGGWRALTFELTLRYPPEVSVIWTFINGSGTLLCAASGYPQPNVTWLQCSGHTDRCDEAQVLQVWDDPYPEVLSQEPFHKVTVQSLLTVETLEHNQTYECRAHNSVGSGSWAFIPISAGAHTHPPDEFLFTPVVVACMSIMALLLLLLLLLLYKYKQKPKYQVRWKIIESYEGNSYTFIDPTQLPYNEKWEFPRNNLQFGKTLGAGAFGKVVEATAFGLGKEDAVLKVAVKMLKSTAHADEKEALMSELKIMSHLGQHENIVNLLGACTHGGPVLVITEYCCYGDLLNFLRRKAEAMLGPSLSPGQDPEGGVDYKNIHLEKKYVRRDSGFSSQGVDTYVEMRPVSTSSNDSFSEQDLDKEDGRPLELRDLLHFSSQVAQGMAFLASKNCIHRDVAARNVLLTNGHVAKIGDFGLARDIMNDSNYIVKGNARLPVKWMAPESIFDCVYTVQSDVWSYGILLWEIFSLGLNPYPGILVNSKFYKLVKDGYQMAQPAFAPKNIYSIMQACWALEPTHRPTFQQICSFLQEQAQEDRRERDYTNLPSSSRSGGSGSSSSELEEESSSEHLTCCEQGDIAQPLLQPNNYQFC
Chain of UniProt P52564 (whole entry, looked up): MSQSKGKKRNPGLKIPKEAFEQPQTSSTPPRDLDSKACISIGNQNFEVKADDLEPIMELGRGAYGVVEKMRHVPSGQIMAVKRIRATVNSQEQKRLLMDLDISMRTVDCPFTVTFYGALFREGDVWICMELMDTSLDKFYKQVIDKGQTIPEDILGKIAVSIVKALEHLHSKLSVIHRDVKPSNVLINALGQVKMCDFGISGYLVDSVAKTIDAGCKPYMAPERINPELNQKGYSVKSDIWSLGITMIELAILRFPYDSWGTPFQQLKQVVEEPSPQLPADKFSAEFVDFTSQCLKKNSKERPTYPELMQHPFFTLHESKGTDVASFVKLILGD
Chain of UniProt Q9BXA7 (whole entry, looked up): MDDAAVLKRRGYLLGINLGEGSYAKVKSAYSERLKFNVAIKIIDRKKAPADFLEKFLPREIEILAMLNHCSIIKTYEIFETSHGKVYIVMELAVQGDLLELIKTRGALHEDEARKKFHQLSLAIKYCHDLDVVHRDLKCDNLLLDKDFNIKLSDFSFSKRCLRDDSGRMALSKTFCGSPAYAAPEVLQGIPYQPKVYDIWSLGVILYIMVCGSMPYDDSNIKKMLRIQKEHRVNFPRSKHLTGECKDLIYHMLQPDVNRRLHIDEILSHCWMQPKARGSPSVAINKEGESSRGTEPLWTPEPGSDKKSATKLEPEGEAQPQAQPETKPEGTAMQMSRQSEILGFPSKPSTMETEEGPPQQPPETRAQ

Block 1
Target: RING finger protein unkempt homolog, zinc fingers 1-6, GST-SBP tag (UNK, Homo sapiens, UniProt Q9C0B0, residues 30-357)
Chain of UniProt Q9C0B0 (30-357, looked up): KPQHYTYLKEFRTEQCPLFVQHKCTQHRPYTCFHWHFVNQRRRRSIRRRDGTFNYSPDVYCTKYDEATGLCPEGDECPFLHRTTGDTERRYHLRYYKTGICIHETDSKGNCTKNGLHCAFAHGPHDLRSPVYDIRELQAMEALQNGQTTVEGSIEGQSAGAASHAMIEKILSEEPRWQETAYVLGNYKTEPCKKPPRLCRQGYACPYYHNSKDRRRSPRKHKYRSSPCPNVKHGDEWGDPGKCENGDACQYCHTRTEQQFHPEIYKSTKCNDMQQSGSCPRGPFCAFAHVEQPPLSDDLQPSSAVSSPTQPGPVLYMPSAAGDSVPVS
Technique: RNA Bind-n-Seq
Form: RNA
Matrix: in vitro
Tested at: not given
Setting: RNA with constant flanks, human-mouse chimeric sites, ends assumed
Relative to: input RNA pool
Reading: higher = stronger binding
`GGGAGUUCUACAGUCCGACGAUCCCCCACAACCAUUUGCAGGUCUGGAACUGCACUCUCUUUUUUAAAAAACAUGUAUACAUUUUAGGGCUGUAGAUUUAUUUUCCUGGUUUUGUUUUUCUUGCUUAUUCUUUGAGCACAGAACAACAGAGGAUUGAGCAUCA` gave a bound/input enrichment of 2.09 ratio.
`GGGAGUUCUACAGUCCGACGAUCCCAAUUGUGGAGCAGUACUUGAAGACAAAGAAAAAUUCUAGUCAUUUAAUCAUCAAGUACAUUAGCUGCCGGCUGGUGACACUCAUCAUUAUACUGUUAGCGUGUAUCUACCUGGGCUAUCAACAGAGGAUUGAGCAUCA` gave a bound/input enrichment of 0.508 ratio.
`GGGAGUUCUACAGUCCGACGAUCGUUGCCAGGUUCCGGUGGGCCUCCAUCCGGUUCUCUCCUGAGCUACGUGUCUCUACGCUCUCAAUCCGCCAUCCAACAAACAUGGAUCAGGUAAUGCAGUUUGUGGAGCCCAGCCGGCAGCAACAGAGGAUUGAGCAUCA` gave a bound/input enrichment of 0.123 ratio.
`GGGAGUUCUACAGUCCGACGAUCGGACAUCUUGUCAGGAUUUAUGUUCCUGUGAAACAAGUGAGCACUUUGAUACACUUCAUCUGCUUGUACAUCUGUAUGAUAGAGAAAUGUAAAUAUGUUAAUCCAAGCAAUGUGUCACUUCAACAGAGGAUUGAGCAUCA` has a bound/input enrichment of 0.201 ratio.
The bound/input enrichment of `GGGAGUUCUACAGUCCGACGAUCAAAGAGAAACUAAAGCAACUAAUAGAGAAGAGGAUUGGCAAAGAGAAUUUCAUAGAGGAAACUAGGAUUAUUAGCAAACAUGAGUUAUAUUCCAGAGCGUCUCAGAAAACCCCAGCCAACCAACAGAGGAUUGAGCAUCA` is reported as 4.78 ratio.
For `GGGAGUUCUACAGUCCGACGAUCCACACACUCUUCUGCGGCACCCUCAUUUUGCAGGCCCGGGCCUAUGUGGGACCGCACGUCCUGGCAGUGGUGACCCGGACAGGGUUCUGCACGGCAAAAGGGGGCCUGGUGAGCUCCAUCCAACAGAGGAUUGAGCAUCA`, the bound/input enrichment was 0.11 ratio.
The bound/input enrichment of `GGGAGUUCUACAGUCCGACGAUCAGCACAACACCAGCUAAGCUAAGAAAUCCUUGUACAAGUGAACAAAACUGCACCAGCCCAUUUAGCUACAAAAAUGUGCUUAGUCUUACUGACAGAGGAGAAGUAUUCAAUGAACUUGUUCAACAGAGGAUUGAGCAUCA` is reported as 0.82 ratio.
The bound/input enrichment of `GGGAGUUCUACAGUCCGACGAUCACACAAUAUGAGACCAACAGCAUGGACUUCAAAGUCGGGGCAGAUGGGACAGUCUUCGCCACCCGGGAGUUGAAGAUCCCCUCCGAGCAGGUGGCGUUCACGGUGACUGCAUGGGACAGCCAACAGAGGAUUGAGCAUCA` is reported as 0.165 ratio.

Block 2
Target: ATF3, bZIP domain (human)
Technique: DHFR protein complementation
Matrix: yeast
Setting: single substitutions, most at no-binding floor
Relative to: wild-type JUN-FOS pair
Reading: higher = stronger binding
Starting sequence: JUN, bZIP domain (human); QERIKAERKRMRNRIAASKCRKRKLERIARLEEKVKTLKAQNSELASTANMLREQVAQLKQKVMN; partner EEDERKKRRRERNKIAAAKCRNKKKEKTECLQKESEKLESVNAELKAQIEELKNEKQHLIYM
For `S43V`, the binding fitness was -0.126 natural log.
`E54M` gave a binding fitness of -0.172 natural log.
`L45H` has a binding fitness of -1.19 natural log.
The binding fitness of `T48K` is reported as -0.146 natural log.
`L31E` has a binding fitness of -0.308 natural log.
The binding fitness of `A57P` is reported as -1.37 natural log.
For `Q55S`, the binding fitness was -0.325 natural log.
For `A57N`, the binding fitness was -0.0893 natural log.

Block 3
Target: Inhibitor of nuclear factor kappa-B kinase subunit beta (IKBKB, Homo sapiens, UniProt O14920)
Effect on: enzyme activity
Mode: inhibitor
Tested at: 0.5 µM
Relative to: control
Residues (O14920 1-756): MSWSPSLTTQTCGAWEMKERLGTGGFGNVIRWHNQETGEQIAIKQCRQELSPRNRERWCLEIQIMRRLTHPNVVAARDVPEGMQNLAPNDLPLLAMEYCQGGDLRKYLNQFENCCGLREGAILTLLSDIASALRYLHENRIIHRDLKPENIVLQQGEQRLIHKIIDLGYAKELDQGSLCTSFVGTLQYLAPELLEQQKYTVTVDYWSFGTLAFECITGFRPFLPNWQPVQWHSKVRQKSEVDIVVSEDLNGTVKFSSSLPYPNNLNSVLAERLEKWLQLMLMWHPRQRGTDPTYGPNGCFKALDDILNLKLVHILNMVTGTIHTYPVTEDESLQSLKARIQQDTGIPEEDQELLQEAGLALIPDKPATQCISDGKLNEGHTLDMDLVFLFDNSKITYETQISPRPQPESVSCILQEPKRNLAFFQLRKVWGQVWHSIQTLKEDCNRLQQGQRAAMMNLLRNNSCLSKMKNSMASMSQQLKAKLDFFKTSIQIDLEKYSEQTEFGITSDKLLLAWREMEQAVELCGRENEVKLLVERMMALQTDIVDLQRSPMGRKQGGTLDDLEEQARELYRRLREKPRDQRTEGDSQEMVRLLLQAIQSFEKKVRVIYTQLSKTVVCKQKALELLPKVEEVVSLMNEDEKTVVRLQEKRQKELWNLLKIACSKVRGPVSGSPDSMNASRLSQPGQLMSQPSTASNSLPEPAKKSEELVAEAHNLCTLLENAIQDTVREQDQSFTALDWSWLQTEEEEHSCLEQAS
The remaining activity of `O=C(Nc1cccc(Nc2cc(Nc3cccc(C(F)(F)F)c3)ncn2)c1)C1CC1` is reported as 100%.
`Cn1c2ccccc2c2c3c(c4c5ccccc5n(CCC#N)c4c21)CNC3=O` has a remaining activity of 90.4%.
`Cc1ccc(Nc2nccc(N(C)c3ccc4c(C)n(C)nc4c3)n2)cc1S(N)(=O)=O` has a remaining activity of 86.9%.
`O=C1NC(=O)C(c2cn(CCCO)c3ncccc23)=C1c1cnccn1` gave a remaining activity of 87.3%.
The remaining activity of `COc1ccc(OC)c2c(=S)c3ccccc3[nH]c12` is reported as 103%.
With `COc1ccc(C(=O)Nc2sc3c(c2C(N)=O)CCCC3)cc1OC` the remaining activity was 87.6%.

Block 4
SMILES: COCCOc1nc(-c2ccc(Cl)nc2)nc2c1CN(C(=O)c1ncn3ccccc13)CC2
Technique: competition with immobilised ligand
Tested at: 0.1 µM
For IKBKB (Homo sapiens, UniProt O14920); cell-free assay: remaining binding read 100%.
For INSRR (Homo sapiens, UniProt P14616); cell-free assay: remaining binding read 100%.
It gave 100% for remaining binding (NIM1K (Homo sapiens, UniProt Q8IY84); cell-free assay).
The remaining binding was 100% (TSSK1B (Homo sapiens, UniProt Q9BXA7); cell-free assay).
The remaining binding was 96% (FLT3 (Homo sapiens, UniProt P36888, ITD); cell-free assay).
The remaining binding was 100% (SRPK2 (Homo sapiens, UniProt P78362); cell-free assay).
For MAPK14 (Homo sapiens, UniProt Q16539); cell-free assay: remaining binding read 100%.
It gave 75% for remaining binding (BLK (Homo sapiens, UniProt P51451); cell-free assay).
For DAPK1 (Homo sapiens, UniProt P53355); cell-free assay: remaining binding read 100%.
Ribosomal protein S6 kinase alpha-6, C-terminal kinase domain (RPS6KA6, Homo sapiens, UniProt Q9UK32); cell-free assay — remaining binding: 100%.
The remaining binding was 66% (PIK3CA (Homo sapiens, UniProt P42336, I800L); cell-free assay).
It gave 100% for remaining binding (PKN1 (Homo sapiens, UniProt Q16512); cell-free assay).
It gave 100% for remaining binding (KIT (Homo sapiens, UniProt P10721, T670I/V559D); cell-free assay).
CDK2 (Homo sapiens, UniProt P24941); cell-free assay — remaining binding: 82%.
For EGFR (Homo sapiens, UniProt P00533); cell-free assay: remaining binding read 88%.
MAP2K6 (Homo sapiens, UniProt P52564); cell-free assay — remaining binding: 100%.
The remaining binding was 100% (Macrophage colony-stimulating factor 1 receptor, autoinhibited (CSF1R, Homo sapiens, UniProt P07333); cell-free assay).
TXK (Homo sapiens, UniProt P42681); binding — remaining binding: 100%.
It gave 96% for remaining binding (MAP3K3 (Homo sapiens, UniProt Q99759); cell-free assay).
It gave 55% for remaining binding (PKN2 (Homo sapiens, UniProt Q16513); cell-free assay).
The remaining binding was 78% (EPHB6 (Homo sapiens, UniProt O15197); cell-free assay).

Excerpt of the above (block 1):
`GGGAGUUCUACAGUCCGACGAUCGUUGCCAGGUUCCGGUGGGCCUCCAUCCGGUUCUCUCCUGAGCUACGUGUCUCUACGCUCUCAAUCCGCCAUCCAACAAACAUGGAUCAGGUAAUGCAGUUUGUGGAGCCCAGCCGGCAGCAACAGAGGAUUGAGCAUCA` gave a bound/input enrichment of 0.123 ratio.
`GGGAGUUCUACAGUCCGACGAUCGGACAUCUUGUCAGGAUUUAUGUUCCUGUGAAACAAGUGAGCACUUUGAUACACUUCAUCUGCUUGUACAUCUGUAUGAUAGAGAAAUGUAAAUAUGUUAAUCCAAGCAAUGUGUCACUUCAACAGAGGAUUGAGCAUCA` has a bound/input enrichment of 0.201 ratio.
The bound/input enrichment of `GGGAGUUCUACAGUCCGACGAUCAAAGAGAAACUAAAGCAACUAAUAGAGAAGAGGAUUGGCAAAGAGAAUUUCAUAGAGGAAACUAGGAUUAUUAGCAAACAUGAGUUAUAUUCCAGAGCGUCUCAGAAAACCCCAGCCAACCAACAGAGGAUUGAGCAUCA` is reported as 4.78 ratio.
For `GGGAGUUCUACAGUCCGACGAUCCACACACUCUUCUGCGGCACCCUCAUUUUGCAGGCCCGGGCCUAUGUGGGACCGCACGUCCUGGCAGUGGUGACCCGGACAGGGUUCUGCACGGCAAAAGGGGGCCUGGUGAGCUCCAUCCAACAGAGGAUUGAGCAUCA`, the bound/input enrichment was 0.11 ratio.
The bound/input enrichment of `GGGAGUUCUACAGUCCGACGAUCAGCACAACACCAGCUAAGCUAAGAAAUCCUUGUACAAGUGAACAAAACUGCACCAGCCCAUUUAGCUACAAAAAUGUGCUUAGUCUUACUGACAGAGGAGAAGUAUUCAAUGAACUUGUUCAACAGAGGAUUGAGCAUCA` is reported as 0.82 ratio.
